Experimental data gathered from unrelated publications.
Compare with care: the assays were run in different laboratories.
Organism: Pseudomonas aeruginosa

| SMILES | test | system | setting | MIC |
| --- | --- | --- | --- | --- |
| CN[C@H](CC(C)C)C(=O)N[C@H]1C(=O)N[C@@H](CC(N)=O)C(=O)N[C@H]2C(=O)N[C@H]3C(=O)N[C@H](C(=O)N[C@H](C(=O)N[C@@H](CCCNC(=N)N)C(N)=O)c4cc(O)cc(O)c4-c4cc3ccc4O)[C@H](O)c3ccc(c(Cl)c3)Oc3cc2cc(c3O[C@@H]2O[C@H](CO)[C@@H](O)[C@H](O)[C@H]2O[C@H]2C[C@](C)(NCc3ccc(OCc4cn(CC(=O)N[C@H](C(=O)N[C@@H](CCN)C(=O)N[C@H]5CCNC(=O)[C@H]([C@@H](C)O)NC(=O)[C@H](CCN)NC(=O)[C@H](CCN)NC(=O)[C@H](CC(C)C)NC(=O)[C@@H](CC(C)C)NC(=O)[C@H](CCN)NC5=O)[C@@H](C)O)nn4)c(OC)c3)[C@H](O)[C@H](C)O2)Oc2ccc(cc2Cl)[C@H]1O | broth microdilution | ATCC 17978, cation-adjusted Mueller-Hinton broth |  | 46 µM |
| CCn1c(-c2ccc(Br)cc2)c(-c2ccc(Br)cc2)n(CC)c1=[Se] | broth microdilution | carbapenem-resistant BAA-2108 | 24 h | > 40 µM |
| CCCCCCCC(=O)N[C@@H](CCN)C(=O)N[C@H](C(=O)N[C@@H](CCN)C(=O)N[C@H]1CCNC(=O)[C@H]([C@@H](C)O)NC(=O)[C@H](CCN)NC(=O)[C@H](CCN)NC(=O)[C@H](CC(C)C)NC(=O)[C@@H](Cc2cccc(F)c2)NC(=O)[C@H](CCN)NC1=O)[C@@H](C)O | broth microdilution | PAO1, colistin-susceptible |  | 0.25 to 0.5 µg/mL |
| CC[C@H](C)[C@H](NC(=O)[C@H](C)NC(=O)[C@@H](NC(=O)[C@H](CC(=O)O)NC(=O)[C@H](CCCCN)NC(=O)[C@H](CO)NC(=O)[C@@H](NC(=O)[C@H](CC(N)=O)NC(=O)[C@H](C)NC(=O)[C@@H](NC(=O)[C@H](CCC(=O)O)NC(=O)[C@H](CCCCN)NC(=O)[C@@H](NC(=O)[C@@H](NC(=O)[C@H](Cc1c[nH]cn1)NC(=O)[C@H](CCCCN)NC(=O)[C@@H](NC(=O)[C@H](CCCCN)NC(=O)[C@H](CCCCN)NC(=O)[C@@H](NC(=O)[C@H](CC(C)C)NC(=O)[C@H](CCCCN)NC(=O)[C@H](CC(N)=O)NC(=O)[C@H](Cc1ccccc1)NC(=O)[C@H](CCCNC(=N)N)NC(=O)[C@H](CCCCN)NC(=O)[C@H](CCCNC(=N)N)NC(=O)[C@H](Cc1ccccc1)NC(=O)CN)C(C)C)C(C)C)[C@@H](C)O)[C@@H](C)CC)[C@@H](C)O)C(C)C)C(C)C)C(=O)N[C@H](C(=O)N[C@@H](C)C(=O)NCC(=O)N[C@@H](CO)C(=O)NCC(=O)N[C@H](C(=O)N[C@@H](C)C(=O)N[C@H](C(=O)NCC(=O)N[C@@H](C)C(=O)N[C@@H](C)C(=O)N[C@@H](CCSC)C(N)=O)C(C)C)C(C)C)C(C)C | broth microdilution | RKI 93/12, CAMHB with 10% mouse serum |  | 16 µg/mL |
| C#CCNC(=O)[C@H]1NC(=O)[C@H]2NC(=O)[C@H](NC(=O)[C@@H]3NC(=O)[C@H](CC(N)=O)NC(=O)[C@H](NC(=O)[C@@H](CC(C)C)NC)[C@H](O)c4ccc(c(Cl)c4)Oc4cc3cc(c4O[C@@H]3O[C@H](CO)[C@@H](O)[C@H](O)[C@H]3O[C@H]3C[C@](C)(N)[C@H](O)[C@H](C)O3)Oc3ccc(cc3Cl)[C@H]2O)c2ccc(O)c(c2)-c2c(O)cc(O)cc21 | broth microdilution | ATCC 27853, cation-adjusted Mueller-Hinton broth |  | > 86 µM |
| CC[C@H](C)[C@H](NC(=O)CN)C(=O)NCC(=O)N[C@@H](C)C(=O)N[C@H](C(=O)N[C@@H](CC(C)C)C(=O)N[C@@H](CCCCN)C(=O)N[C@H](C(=O)N[C@@H](CC(C)C)C(=O)N[C@H](C(=O)N[C@H](C(=O)NCC(=O)N[C@@H](CC(C)C)C(=O)N1CCC[C@H]1C(=O)N[C@@H](C)C(=O)N[C@@H](CC(C)C)C(=O)N[C@H](C(=O)N[C@@H](CO)C(=O)N[C@@H](Cc1c[nH]c2ccccc12)C(=O)N[C@H](C(=O)N[C@@H](CCCCN)C(=O)N[C@@H](CCCNC(=N)N)C(=O)N[C@@H](CCCCN)C(=O)N[C@@H](CCCNC(=N)N)C(=O)N[C@@H](CCC(N)=O)C(=O)N[C@@H](CCC(N)=O)C(N)=O)[C@@H](C)CC)[C@@H](C)CC)[C@@H](C)O)[C@@H](C)O)C(C)C)C(C)C | broth microdilution | 4007 resistant | 18 h, 37 °C | 2 µM |
| CC(C)C[C@@H]1NC(=O)[C@H](CCCCN)NC(=O)CNC(=O)[C@H]2CCCN2C(=O)[C@H](CCCCN)NC(=O)[C@H](CC(C)C)NC(=O)[C@H](CCCCN)NC(=O)C2CCC=CCCC(NC(=O)[C@H](CCCCN)NC1=O)C(=O)N[C@@H](CCCCN)C(=O)NC(C(N)=O)CCC=CCCC(N)C(=O)N[C@@H](CCCCN)C(=O)N2 (stereo partly drawn) | broth microdilution | ATCC 9027, Mueller-Hinton broth | 18 h, 37 °C | 32 µM |
| CC(C)C[C@@H]1NC(=O)[C@@H](CC(C)C)NC(=O)[C@H](CCN)NC(=O)[C@@H](NC(=O)[C@H](CCN)NC(=O)[C@@H](NC(=O)CCCCN=[N+]=[N-])[C@@H](C)O)CCNC(=O)[C@H]([C@@H](C)O)NC(=O)[C@H](CCN)NC(=O)[C@H](CCN)NC1=O | broth microdilution | ATCC 25922, cation-adjusted Mueller-Hinton broth |  | 8 µM |
| CC[C@H](C)[C@H](NC(=O)[C@@H](CCCNC(=N)N)NC(=O)[C@H](CCCNC(=N)N)NC(=O)[C@H](CCC(N)=O)NC(=O)[C@H](Cc1c[nH]c2ccccc12)NC(=O)[C@H](CCCNC(=N)N)NC(=O)[C@@H]1CCCN1C(=O)[C@H](CCCNC(=N)N)NC(=O)[C@@H]1CCCN1C(=O)[C@H](CC(C)C)NC(=O)[C@H](Cc1ccc(O)cc1)NC(=O)[C@@H]1CCCN1C(=O)[C@@H]1CCCN1C(=O)[C@H](CCCCN)NC(=O)[C@H](CC(=O)O)NC(=O)[C@@H](N)C(C)C)C(=O)N[C@@H](Cc1ccc(O)cc1)C(=O)N[C@@H](CC(N)=O)C(=O)N[C@H](CCCNC(=N)N)C(N)=O | broth microdilution | DSM 1117 | 18 h, 37 °C, 25% MHB2 | 128 µg/mL |
| CC[C@H](C)[C@@H]1NC(=O)[C@H](C(C)C)NC(=O)[C@H](C(C)C)NC(=O)[C@H](CC(C)C)NC(=O)C[C@@H](C(=O)N[C@@H](Cc2c[nH]c3ccccc23)C(=O)N[C@@H](CC(N)=O)C(=O)N[C@@H](C)C(=O)N2CCC[C@H]2C(=O)NCC(=O)N[C@@H](Cc2c[nH]c3ccccc23)C(=O)N[C@@H](Cc2ccccc2)C(=O)O)NC(=O)[C@H](C)NC(=O)[C@H](CCC(N)=O)NC(=O)[C@H](C(C)C)NC1=O |  | 14 |  | > 32 µg/mL |
| CC[C@H](C)[C@H](NC(=O)[C@@H](CCCNC(=N)N)NC(=O)[C@H](CCCNC(=N)N)NC(=O)[C@H](CC(=O)O)NC(=O)[C@H](Cc1c[nH]c2ccccc12)NC(=O)[C@H](CCCNC(=N)N)NC(=O)[C@@H]1CCCN1C(=O)[C@H](CCCNC(=N)N)NC(=O)[C@@H]1CCCN1C(=O)[C@H](CC(C)C)NC(=O)[C@H](Cc1ccc(O)cc1)NC(=O)[C@@H]1CCCN1C(=O)[C@@H]1CCCN1C(=O)[C@H](CCCCN)NC(=O)[C@H](CC(=O)O)NC(=O)[C@@H](N)C(C)C)C(=O)N[C@@H](Cc1ccc(O)cc1)C(=O)N[C@@H](CC(N)=O)C(=O)N[C@H](CCCNC(=N)N)C(N)=O | broth microdilution | DSM 1117 | 18 h, 37 °C, 25% MHB2 | > 128 µg/mL |
| CC(=O)N[C@H](Cc1ccc(Br)cc1)C(=O)N[C@@H](CCN)C(=O)N[C@H](C(=O)N[C@@H](CCN)C(=O)N[C@H]1CCNC(=O)[C@H]([C@@H](C)O)NC(=O)[C@H](CCN)NC(=O)[C@H](CCN)NC(=O)[C@H](CC(C)C)NC(=O)[C@@H](Cc2ccccc2)NC(=O)[C@H](CCN)NC1=O)[C@@H](C)O | broth microdilution | PAO1, colistin-susceptible |  | 0.125 to 0.25 µg/mL |
| C#CCOc1ccc(CN[C@@]2(C)C[C@H](O[C@H]3[C@H](Oc4c5cc6cc4Oc4ccc(cc4Cl)[C@@H](O)[C@@H](NC(=O)[C@@H](CC(C)C)NC)C(=O)N[C@@H](CC(N)=O)C(=O)N[C@H]6C(=O)N[C@H]4C(=O)N[C@H](C(=O)N[C@H](C(=O)NCC(N)=O)c6cc(O)cc(O)c6-c6cc4ccc6O)[C@H](O)c4ccc(c(Cl)c4)O5)O[C@H](CO)[C@@H](O)[C@@H]3O)O[C@@H](C)[C@H]2O)cc1OC | broth microdilution | ATCC 27853, cation-adjusted Mueller-Hinton broth | 18 to 20 h, 37 °C, 0.002% polysorbate 80 | > 128 µg/mL |
| CC(=O)N[C@@H](CC(C)C)C(=O)N[C@H]1CSSC[C@@H](C(=O)N2CCC[C@H]2C(N)=O)NC(=O)[C@H]([C@@H](C)O)NC(=O)[C@H](C(C)C)NC(=O)[C@H]([C@@H](C)O)NC(=O)CNC(=O)[C@H](CCCCN)NC(=O)[C@H](Cc2ccccc2)NC(=O)[C@H](Cc2ccc(O)cc2)NC(=O)[C@H](CCCCN)NC(=O)[C@H](CCC(=O)O)NC(=O)[C@H](Cc2ccccc2)NC(=O)[C@H](CCCNC(=N)N)NC(=O)[C@H](CCCCN)NC(=O)[C@H](CC(C)C)NC(=O)[C@H](CC(=O)O)NC(=O)[C@@H]2CCCN2C(=O)[C@H](CCCCN)NC(=O)[C@H](C(C)C)NC(=O)[C@H](CCCCN)NC(=O)[C@H](CCCCN)NC(=O)[C@H]([C@@H](C)O)NC1=O | broth dilution | CGMCC strain | 24 h | > 40 µM |
| CC[C@H](C)[C@H](NC(=O)[C@@H](CCCNC(=N)N)NC(=O)[C@H](CCCNC(=N)N)NC(=O)[C@@H]1CCCN1C(=O)[C@@H]1CCCN1C(=O)[C@H](CCCCNC(=N)N)NC(=O)[C@@H]1CCCN1C(=O)[C@H](CCCNC(=N)N)NC(=O)[C@@H]1CCCN1C(=O)[C@H](CC(C)C)NC(=O)[C@H](Cc1ccc(O)cc1)NC(=O)[C@@H]1CCCN1C(=O)[C@@H]1CCCN1C(=O)[C@H](CCCCN)NC(=O)[C@H](CC(=O)O)NC(=O)[C@@H](N)C(C)C)C(=O)N[C@@H](Cc1ccc(O)cc1)C(=O)N[C@@H](CC(N)=O)C(=O)N[C@H](CCCNC(=N)N)C(N)=O | broth microdilution | DSM 1117 | 18 h, 37 °C, 25% MHB2 | 64 µg/mL |

A few entries again:
| SMILES | test | system | setting | MIC |
| --- | --- | --- | --- | --- |
| CN[C@H](CC(C)C)C(=O)N[C@H]1C(=O)N[C@@H](CC(N)=O)C(=O)N[C@H]2C(=O)N[C@H]3C(=O)N[C@H](C(=O)N[C@H](C(=O)N[C@@H](CCCNC(=N)N)C(N)=O)c4cc(O)cc(O)c4-c4cc3ccc4O)[C@H](O)c3ccc(c(Cl)c3)Oc3cc2cc(c3O[C@@H]2O[C@H](CO)[C@@H](O)[C@H](O)[C@H]2O[C@H]2C[C@](C)(NCc3ccc(OCc4cn(CC(=O)N[C@H](C(=O)N[C@@H](CCN)C(=O)N[C@H]5CCNC(=O)[C@H]([C@@H](C)O)NC(=O)[C@H](CCN)NC(=O)[C@H](CCN)NC(=O)[C@H](CC(C)C)NC(=O)[C@@H](CC(C)C)NC(=O)[C@H](CCN)NC5=O)[C@@H](C)O)nn4)c(OC)c3)[C@H](O)[C@H](C)O2)Oc2ccc(cc2Cl)[C@H]1O | broth microdilution | ATCC 17978, cation-adjusted Mueller-Hinton broth |  | 46 µM |
| CCn1c(-c2ccc(Br)cc2)c(-c2ccc(Br)cc2)n(CC)c1=[Se] | broth microdilution | carbapenem-resistant BAA-2108 | 24 h | > 40 µM |
